Measured values collected from several papers.
Each numbered part is a random draw from the data of one study; scales do not carry over between parts.

Study 1 — technique: aptamer microarray, sandwich; form: DNA with 2'F-ANA; sample: in vitro; concentration: 200 nM; together with: Cy3 exosite-II aptamer, 400 nM; reading: higher = stronger binding; quantity: mean fluorescence intensity; strand: GGTTGGTGTGGTTGG
Target: Prothrombin, mature alpha-thrombin (F2, Homo sapiens, UniProt P00734)
Notes: whole 15-mer aptamer, many near background
2'F-ANA at 1 3 4 5 7 8 11 12 13 14 15: 49.9 a.u.
2'F-ANA at 1 6 8 9 11 12 14: 192 a.u.
2'F-ANA at 2 3 5 6 7 11 13: 63.8 a.u.
2'F-ANA at 3 4 7 11 13 14 15: 328 a.u.
2'F-ANA at 3 4 5 6 8 9 12 13 14 15: 49.6 a.u.
2'F-ANA at 1 2 4 8 9 10 11 14: 48.6 a.u.
2'F-ANA at 1 2 3 5 6 7 10 11: 50 a.u.
2'F-ANA at 1 5 7 10 13 15: 43.4 a.u.
2'F-ANA at 1 2 3 6 8 11 12 13: 319 a.u.
2'F-ANA at 1 2 3 4 5 7 8 9 11 12 13 14: 53.6 a.u.
2'F-ANA at 4 6 7 10 12 13 15: 93 a.u.
2'F-ANA at 2 4 5: 84.3 a.u.
2'F-ANA at 1 2 7 9 10 13: 113 a.u.
2'F-ANA at 4 5 7 9 11 12 13: 80.5 a.u.
2'F-ANA at 1 2 4 7 9 11 12: 200 a.u.
2'F-ANA at 5 8 9 12 14: 50.4 a.u.
2'F-ANA at 1 2 4 5 6 9 10 12: 186 a.u.
2'F-ANA at 3 4 5 8 9 10 11 12 13: 53.9 a.u.
2'F-ANA at 1 6 7 8 9 11 14 15: 58.3 a.u.
2'F-ANA at 1 2 3 4 5 7 9 11 12 13 14 15: 46.6 a.u.
2'F-ANA at 1 2 7 9 10 11 12 13 14 15: 51.4 a.u.
2'F-ANA at 1 2 4 5 6 7 9 14: 47.2 a.u.
2'F-ANA at 1 2 5 7 8 12 13: 80.3 a.u.
2'F-ANA at 1 2 8 9 11 12 13: 237 a.u.
2'F-ANA at 1 2 3 4 6 10 12 13: 69.7 a.u.

Study 2 — technique: RNA Bind-n-Seq; form: RNA; sample: in vitro; concentration: not given; relative to: input RNA pool; reading: higher = stronger binding; quantity: bound/input enrichment
Target: RING finger protein unkempt homolog, zinc fingers 1-6, GST-SBP tag (UNK, Homo sapiens, UniProt Q9C0B0, residues 30-357)
Notes: RNA with constant flanks, human and mouse sites, ends assumed
All sequences stand within: GGGAGUUCUACAGUCCGACGAUC … CAACAGAGGAUUGAGCAUCA
Target sequence (chain): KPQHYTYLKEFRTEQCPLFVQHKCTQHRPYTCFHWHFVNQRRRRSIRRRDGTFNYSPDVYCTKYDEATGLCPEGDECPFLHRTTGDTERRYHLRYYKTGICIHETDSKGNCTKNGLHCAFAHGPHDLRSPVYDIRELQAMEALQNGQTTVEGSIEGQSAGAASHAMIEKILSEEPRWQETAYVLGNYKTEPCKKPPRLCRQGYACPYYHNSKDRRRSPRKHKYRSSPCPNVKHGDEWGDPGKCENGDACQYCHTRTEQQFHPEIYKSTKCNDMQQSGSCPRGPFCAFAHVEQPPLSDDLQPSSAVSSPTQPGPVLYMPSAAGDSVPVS
UGUUUUUUUAUAGCUGUUUGUAUAAUAUGUGAGUAUUUUAUAGUAUGUUAGUUUUUAACAUAGUAAGUGCUGUAAAAUAUACUUCUUUUGUAUUCAAUUAAUCCUUUUUAAUUUUUUUUG: 9.08 ratio
AAGGAGCCGGUGCUGGUGGUGUCCUUCUCUGUCUGGGGCCUCGCUAUAAUUAUGCCCAUGAUUAGCCCCUACACCAAGUAUGCUAGCAUGAUCAACAAGGCCACACCCUACAACUACCCA: 0.171 ratio
CGCCUGGUGGACAGCAAAGGCUUUGAUGAAUACAUGAAGGAGCUAGGAGUGGGAAUAGCUUUGCGAAAAAUGGGCGCAAUGGCCAAGCCAGAUUGUAUCAUCACUUGUGAUGGUAAAAAC: 0.391 ratio
CGUACAUUGGUAGGCAUGAAGUUGUUGGACAAGAUUCCCUCUGUCCCCCACGGGGAGCUGUCUUGCACCACAGAGCUCCUGAUCCUGGCCCACCACUGCUUUACCUUCACGUGCCACAUG: 0.236 ratio
GCACAGCAGAUGUAUGGCAGAGGUCCUUCCGCUCCUCACAUGGGGGGCUCCAUGCCCGGAUCUUUCCAAGGAAUUCCAGCAUCAGCAUCCCAUUCCUAUUCGAGUGCCUCCCAGCCCUAC: 0.112 ratio
UUCAUCUUGAGGUGGCCAAUAUGGGGAUGUGGAAUUUUUAUACAAGUUAUAAGUGUUUGGCAUAGUACUUUUGGUACAUUGUGGCUUCAAAAGGGCCAGUGUAAAACUGCUUCCAUGUCU: 0.134 ratio
GGGUUUUCUGCCCCAAAAGACCAACAAGUAGUCACAGCAGUAGAGUACCAAGAGGCUAUUUUAGCCUGCAAAACCCCAAAGAAGACUGUUUCCUCCAGAUUAGAGUGGAAGAAACUGGGU: 0.331 ratio
AAAGAGUGGGAAGAGUAUGUGCAGAUCCGGACUCUGGUUGAGAAAAUACGGAAAAAGCAAAAAGGUCUGUCCGUUACUUUUGAUGGAAAAAGAGAAGAUUACUUUCCUGAUCUAAUGAAA: 0.135 ratio
CCAAACCGAUUUGAUAUGAACGUGUGUUCUCGAUUCGUGAAGUCCUUAAAUGAAGAGGAUAGUAAAAAUAUUCAAGAUCAAGUUAACUCUGACCUGGAGGUGGCAUCUGUCUUAUUUAAA: 0.256 ratio
UUUGAUUUCUUUUUCUUUUUUUCUCUUCUUGUUUUUGUUUUUCUUUUUUGUUUGUUUUUUUAGCAUGCAAAUAUGUUGGUACGUUAUGUCCUGGUUUAAAAGGAUUAAAAAUUUAAAAGU: 1.37 ratio
CGCUUCAACUCACGGAUCCGUGUGAAGACCUACACAGAUGAGCUGACGCCCAUUGAGUCUGCUGUCUCUGUGUUCAAGGCAGCCAACUGGUAUGAAAGGGAGAUCUGGGACAUGUUUGGA: 0.0813 ratio

Study 3 — technique: universal PBM; form: double-stranded DNA, one strand shown; sample: in vitro; concentration: 600 nM; reading: higher = stronger binding; quantity: E-score
Target: Sal-like protein 4, full length isoform A (SALL4, Homo sapiens, UniProt Q9UJQ4, residues 1-1053)
Sequence of UniProt Q9UJQ4 (whole entry, looked up): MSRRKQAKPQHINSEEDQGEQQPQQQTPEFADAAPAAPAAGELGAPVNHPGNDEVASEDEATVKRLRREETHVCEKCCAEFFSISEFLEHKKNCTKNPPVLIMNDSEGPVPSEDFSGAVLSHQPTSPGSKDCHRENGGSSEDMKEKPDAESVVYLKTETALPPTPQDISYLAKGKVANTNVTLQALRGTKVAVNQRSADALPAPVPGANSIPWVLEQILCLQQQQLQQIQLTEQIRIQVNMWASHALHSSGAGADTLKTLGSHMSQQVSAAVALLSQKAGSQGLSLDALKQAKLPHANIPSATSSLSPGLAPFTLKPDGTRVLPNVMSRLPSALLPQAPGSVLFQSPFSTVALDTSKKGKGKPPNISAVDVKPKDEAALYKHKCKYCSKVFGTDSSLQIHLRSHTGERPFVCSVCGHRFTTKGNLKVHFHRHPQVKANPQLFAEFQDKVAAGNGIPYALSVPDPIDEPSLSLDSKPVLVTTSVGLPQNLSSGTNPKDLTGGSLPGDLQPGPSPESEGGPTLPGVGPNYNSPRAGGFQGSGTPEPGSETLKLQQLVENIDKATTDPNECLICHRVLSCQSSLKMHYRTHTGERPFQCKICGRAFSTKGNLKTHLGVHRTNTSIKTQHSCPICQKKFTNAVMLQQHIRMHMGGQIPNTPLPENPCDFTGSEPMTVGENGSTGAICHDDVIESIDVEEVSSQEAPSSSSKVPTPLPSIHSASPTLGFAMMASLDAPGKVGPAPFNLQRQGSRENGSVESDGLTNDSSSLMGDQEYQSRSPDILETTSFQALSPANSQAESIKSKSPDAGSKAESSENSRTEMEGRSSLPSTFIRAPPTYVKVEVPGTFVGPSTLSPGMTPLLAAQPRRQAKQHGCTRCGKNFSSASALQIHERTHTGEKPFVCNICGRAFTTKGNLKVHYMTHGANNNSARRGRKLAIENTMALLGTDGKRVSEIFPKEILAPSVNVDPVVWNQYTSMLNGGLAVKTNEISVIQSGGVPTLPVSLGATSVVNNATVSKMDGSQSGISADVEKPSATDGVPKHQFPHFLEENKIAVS
Notes: 8-mer, flanks averaged, mean of replicates
GGCAACCC: -0.333
TAAGCCCA: 0.018
GTCAAGCA: -0.216
ACTGGACA: -0.114
GCTCGAAA: -0.054
CAGGCAGA: 0.0104
CAGCGAAG: -0.163
ATCAGGTA: 0.181
ACAGAAGG: -0.245
AGTGTAAC: 0.0215
GCTTGTAA: 0.14
CTACTGAA: 0.112
ACTGGCTG: -0.301
ACGGGCGA: -0.273
GCAGACGC: -0.245
GCGCCCCA: -0.387
CTTAACTC: 0.0223
GTAGCGAC: -0.213
ATAATGCA: 0.279
AATCACAT: 0.172
AACCATCG: -0.0297
ACACGAAC: -0.122
CCCGAGGG: -0.335
GAGAGGAA: -0.043
AGGGACTG: -0.2

Study 4 — technique: RNA Bind-n-Seq; form: RNA; sample: in vitro; concentration: 365 nM; relative to: no-protein control; reading: higher = stronger binding; quantity: RBNS enrichment (R)
Target: RNA binding protein fox-1 homolog 2, RRM domain, GST-SBP tag (RBFOX2, Homo sapiens, UniProt O43251-10, residues 100-194)
Notes: natural RNA segment, single round, ends assumed
All sequences stand within: GGGAGUUCUACAGUCCGACGAUC … UGGAAUUCUCGGGUGCCAA
Construct (chain): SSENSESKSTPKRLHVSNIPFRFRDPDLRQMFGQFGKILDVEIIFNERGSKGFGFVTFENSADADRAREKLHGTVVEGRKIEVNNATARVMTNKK
UGGGCCGUGGCUUUCAGUUCUCAGCACAGACAUCUGUGUUUUUCUCGUCCAACCCUAAGCCUCUUCCUUAAGGUUCUUGUGACAGAUCCAGUUCAGGGAGGAGGCACUGA: 0.253
ACCUACGGACGCCUGGAAGCUGCGACGCCCUGCACUGCUCCCGCCUCCACCAGCGCCUCCCACUGAUGUCGUGGUCCCGGGCCUGGCCCAGGGGCCCCUUUACAUGCCCU: 0.452
UGAUUGAGCUUCAGGCUUUACAACGUUUAUCCCUGUAGAGAUCAUCUUUACAGUUCCUCGGGAAAAUGUGAAUGUGCUGCGUUUUGUUUUCUUUACUGUAUGAAAACAGG: 0.547
UCACCUUUGCAAAGUUAUAGAGGAACCUGCCCUGGUACAUCUUUAAUAUUAGGAUUCUGUUUUCUACAUUGCAAGCACAGGCACCCAUAGUACACUUUUGUUGAAGUUAC: 0.444
GAUACAAGAGCCCAUCUCUUCUCCUCACCUCACUGGAGCCACAGAAGCCAGGCAGCAGCUACAGGAGUUAUCAUCUGUGUCUUUUACCAUGAUUUGAUUUGUGUUCUCAA: 0.311
CAUUCCCACGGCAUCAUCUACCGGGACCUCAAGCCUGAGAACAUCAUGCUCAGCAGCCAGGGCCACAUCAAACUGACAGACUUUGGACUUUGCAAGGAGUCCAUUCAUGA: 0.248
UCGCUUUCCUACCCCAAGCAAGUAUUGGUGGCCAUGGCAGCGUGGCGAAGCCAUGCUGGGCGGGAGCUGCACCUGCUGGCGUGGCUCUUCUCACUGAGCUCCUCGCCCCA: 0.308
AUGUUUUGGAAUUUGAUAGACUUUCGGCAACCAGUUCUACUAAUGCUUCACUCCUGGCUCUGUUCAGGGAGGCUGCCCAGGAGGAAGACUGGCCAUUAUGCAUCCCCUUU: 5.33
GGUGUUAUUUGCAUGUGUGGGUUUCUCACAAGGCUCCCUCCCUUCCUCAGAAGGUUCAUCACGGAAUUUCCUGACAUGCACUGUAGAUGCUACAAACAUGUCUACCCAGG: 24.2
GCCAAUCUGGCCCUUACACACUCAGGCCUGUGCCCACUCCCUAUCUCCUUCCCACCCCUACACACACACUCCCUGCUUGCAGGAGGCCAAACUGUCCCUCCCUUGCUGAA: 0.678
CCACAGAGGCCACAAAAUGUUGCAAGUCAUGAUGGAUGGAAAUAUGUUCUAACAGCAUCUGCCUCUAUUCAAUUUAAUUCUUAUUUCUGUGUUACUCAUGUACAUUGGUC: 0.97
GAAGGAAGGAAGAAAAGAAGGAAGGAAGAAGCAUUUGGAAGGAGAACCAGACUGAAAGCUUCAGAGCAAUAAUGUGACUGAAAACUUAUUUAAAGUUAGCUUCUUUCCAC: 0.541
